Measured values from different studies.
Each line is one published result; not all experiments were run side by side. Numbers after ± are the reported error.
DRD3: D(3) dopamine receptor (DRD3, Homo sapiens, UniProt P35462)
Sequence of UniProt P35462 (whole entry, looked up): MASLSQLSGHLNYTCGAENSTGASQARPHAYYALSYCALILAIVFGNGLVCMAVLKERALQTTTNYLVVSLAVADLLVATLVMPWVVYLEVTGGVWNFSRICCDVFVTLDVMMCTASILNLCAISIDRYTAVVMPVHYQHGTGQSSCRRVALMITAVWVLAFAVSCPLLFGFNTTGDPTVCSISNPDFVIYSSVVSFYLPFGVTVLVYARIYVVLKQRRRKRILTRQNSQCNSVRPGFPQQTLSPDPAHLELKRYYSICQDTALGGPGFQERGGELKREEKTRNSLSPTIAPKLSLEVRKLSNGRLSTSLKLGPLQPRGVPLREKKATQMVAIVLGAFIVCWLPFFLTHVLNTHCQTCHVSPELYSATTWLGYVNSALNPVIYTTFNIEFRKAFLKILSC
Si: Sucrase-isomaltase, intestinal (Si, Rattus norvegicus, UniProt P23739)
Sequence of UniProt P23739 (whole entry, looked up): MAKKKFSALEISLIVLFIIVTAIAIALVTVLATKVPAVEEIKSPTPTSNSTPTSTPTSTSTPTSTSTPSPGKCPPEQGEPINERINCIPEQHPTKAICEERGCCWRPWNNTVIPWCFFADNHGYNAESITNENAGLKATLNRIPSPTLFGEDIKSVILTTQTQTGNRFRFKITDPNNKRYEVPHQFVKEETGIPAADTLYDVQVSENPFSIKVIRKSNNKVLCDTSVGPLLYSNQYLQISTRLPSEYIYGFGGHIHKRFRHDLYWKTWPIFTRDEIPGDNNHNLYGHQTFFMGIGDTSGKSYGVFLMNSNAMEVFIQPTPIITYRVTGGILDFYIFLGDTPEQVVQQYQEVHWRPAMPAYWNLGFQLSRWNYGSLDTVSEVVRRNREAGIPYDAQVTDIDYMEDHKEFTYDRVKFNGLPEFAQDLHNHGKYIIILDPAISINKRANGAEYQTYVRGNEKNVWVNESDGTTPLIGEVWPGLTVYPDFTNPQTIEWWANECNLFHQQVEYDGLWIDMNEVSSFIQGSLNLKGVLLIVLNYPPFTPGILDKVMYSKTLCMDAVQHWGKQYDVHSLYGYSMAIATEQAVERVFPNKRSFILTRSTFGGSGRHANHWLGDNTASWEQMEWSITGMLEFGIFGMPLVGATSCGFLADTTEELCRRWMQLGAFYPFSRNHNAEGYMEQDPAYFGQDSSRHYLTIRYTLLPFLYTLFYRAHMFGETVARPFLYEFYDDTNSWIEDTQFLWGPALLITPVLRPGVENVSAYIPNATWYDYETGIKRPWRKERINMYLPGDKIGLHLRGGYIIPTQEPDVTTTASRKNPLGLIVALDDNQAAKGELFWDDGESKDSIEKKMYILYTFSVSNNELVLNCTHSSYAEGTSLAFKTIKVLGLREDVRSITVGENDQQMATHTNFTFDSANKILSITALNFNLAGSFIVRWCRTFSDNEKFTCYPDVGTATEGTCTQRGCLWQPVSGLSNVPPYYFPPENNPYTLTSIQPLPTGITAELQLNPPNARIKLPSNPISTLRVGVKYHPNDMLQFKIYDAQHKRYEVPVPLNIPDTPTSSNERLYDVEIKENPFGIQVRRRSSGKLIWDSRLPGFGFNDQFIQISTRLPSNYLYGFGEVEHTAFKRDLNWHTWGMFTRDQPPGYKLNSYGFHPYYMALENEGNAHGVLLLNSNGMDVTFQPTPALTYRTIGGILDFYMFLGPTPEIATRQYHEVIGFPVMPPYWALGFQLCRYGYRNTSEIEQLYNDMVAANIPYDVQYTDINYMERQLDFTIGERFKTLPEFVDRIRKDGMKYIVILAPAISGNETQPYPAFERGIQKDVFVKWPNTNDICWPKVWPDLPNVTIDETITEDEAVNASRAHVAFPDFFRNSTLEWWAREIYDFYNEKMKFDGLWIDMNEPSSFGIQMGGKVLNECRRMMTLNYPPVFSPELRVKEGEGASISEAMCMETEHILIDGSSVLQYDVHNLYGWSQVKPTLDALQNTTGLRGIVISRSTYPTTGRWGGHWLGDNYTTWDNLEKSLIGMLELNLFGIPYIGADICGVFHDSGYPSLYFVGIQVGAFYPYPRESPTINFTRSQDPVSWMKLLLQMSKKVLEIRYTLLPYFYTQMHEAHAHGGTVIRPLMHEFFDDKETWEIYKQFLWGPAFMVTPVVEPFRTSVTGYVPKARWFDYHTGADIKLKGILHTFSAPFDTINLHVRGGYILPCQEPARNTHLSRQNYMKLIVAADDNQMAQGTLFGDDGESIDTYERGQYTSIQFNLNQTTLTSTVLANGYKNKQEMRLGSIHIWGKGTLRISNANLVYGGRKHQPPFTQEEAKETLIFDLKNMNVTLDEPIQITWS
CNR1: Cannabinoid receptor 1 (CNR1, Homo sapiens, UniProt P21554)
Sequence of UniProt P21554 (whole entry, unmodified, looked up): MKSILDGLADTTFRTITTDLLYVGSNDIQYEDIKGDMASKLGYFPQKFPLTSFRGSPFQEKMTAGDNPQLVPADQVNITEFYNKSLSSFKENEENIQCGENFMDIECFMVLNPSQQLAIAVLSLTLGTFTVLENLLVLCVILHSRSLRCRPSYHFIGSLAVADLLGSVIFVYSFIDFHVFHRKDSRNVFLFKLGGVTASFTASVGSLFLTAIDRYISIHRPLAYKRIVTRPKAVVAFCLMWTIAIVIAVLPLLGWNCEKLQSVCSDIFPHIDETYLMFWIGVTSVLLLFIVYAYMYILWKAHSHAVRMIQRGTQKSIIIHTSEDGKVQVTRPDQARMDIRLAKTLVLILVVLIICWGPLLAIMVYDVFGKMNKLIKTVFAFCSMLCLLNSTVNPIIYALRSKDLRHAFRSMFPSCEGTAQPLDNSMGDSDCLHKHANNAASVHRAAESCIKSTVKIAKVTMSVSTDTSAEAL
Sequence of UniProt Q15910 (whole entry, looked up): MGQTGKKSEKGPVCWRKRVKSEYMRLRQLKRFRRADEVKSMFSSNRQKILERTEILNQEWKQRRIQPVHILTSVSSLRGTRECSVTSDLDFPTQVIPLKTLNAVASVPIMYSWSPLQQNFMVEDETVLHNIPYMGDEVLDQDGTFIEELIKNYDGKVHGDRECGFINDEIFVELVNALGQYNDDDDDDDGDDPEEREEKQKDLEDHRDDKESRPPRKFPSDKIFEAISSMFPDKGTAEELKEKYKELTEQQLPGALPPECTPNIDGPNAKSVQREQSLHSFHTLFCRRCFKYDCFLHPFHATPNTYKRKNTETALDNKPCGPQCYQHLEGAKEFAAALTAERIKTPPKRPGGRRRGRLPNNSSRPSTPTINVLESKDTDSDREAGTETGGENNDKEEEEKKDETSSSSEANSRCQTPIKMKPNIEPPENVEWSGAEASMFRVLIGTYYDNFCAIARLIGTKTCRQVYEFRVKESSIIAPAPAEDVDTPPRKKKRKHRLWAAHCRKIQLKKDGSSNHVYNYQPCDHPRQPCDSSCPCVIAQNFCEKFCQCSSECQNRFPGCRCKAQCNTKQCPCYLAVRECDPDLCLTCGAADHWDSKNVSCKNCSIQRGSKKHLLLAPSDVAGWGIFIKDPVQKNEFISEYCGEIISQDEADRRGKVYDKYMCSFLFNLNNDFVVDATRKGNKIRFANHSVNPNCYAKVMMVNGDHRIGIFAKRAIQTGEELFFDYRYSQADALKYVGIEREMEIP
Sequence of UniProt P07948 (whole entry, looked up): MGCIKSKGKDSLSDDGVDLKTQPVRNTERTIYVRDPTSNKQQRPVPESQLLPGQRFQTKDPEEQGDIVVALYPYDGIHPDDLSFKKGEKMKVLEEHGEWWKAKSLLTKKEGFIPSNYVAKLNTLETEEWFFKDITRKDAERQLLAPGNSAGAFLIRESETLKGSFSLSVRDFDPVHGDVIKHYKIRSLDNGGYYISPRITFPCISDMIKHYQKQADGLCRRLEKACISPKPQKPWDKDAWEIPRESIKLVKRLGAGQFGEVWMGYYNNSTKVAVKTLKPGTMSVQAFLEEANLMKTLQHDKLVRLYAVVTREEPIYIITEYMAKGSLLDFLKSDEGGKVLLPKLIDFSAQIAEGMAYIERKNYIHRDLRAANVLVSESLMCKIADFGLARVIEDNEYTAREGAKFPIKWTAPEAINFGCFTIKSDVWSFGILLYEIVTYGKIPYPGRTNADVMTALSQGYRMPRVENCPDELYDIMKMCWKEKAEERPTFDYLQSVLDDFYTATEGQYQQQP
Sequence of UniProt P07384 (whole entry, looked up): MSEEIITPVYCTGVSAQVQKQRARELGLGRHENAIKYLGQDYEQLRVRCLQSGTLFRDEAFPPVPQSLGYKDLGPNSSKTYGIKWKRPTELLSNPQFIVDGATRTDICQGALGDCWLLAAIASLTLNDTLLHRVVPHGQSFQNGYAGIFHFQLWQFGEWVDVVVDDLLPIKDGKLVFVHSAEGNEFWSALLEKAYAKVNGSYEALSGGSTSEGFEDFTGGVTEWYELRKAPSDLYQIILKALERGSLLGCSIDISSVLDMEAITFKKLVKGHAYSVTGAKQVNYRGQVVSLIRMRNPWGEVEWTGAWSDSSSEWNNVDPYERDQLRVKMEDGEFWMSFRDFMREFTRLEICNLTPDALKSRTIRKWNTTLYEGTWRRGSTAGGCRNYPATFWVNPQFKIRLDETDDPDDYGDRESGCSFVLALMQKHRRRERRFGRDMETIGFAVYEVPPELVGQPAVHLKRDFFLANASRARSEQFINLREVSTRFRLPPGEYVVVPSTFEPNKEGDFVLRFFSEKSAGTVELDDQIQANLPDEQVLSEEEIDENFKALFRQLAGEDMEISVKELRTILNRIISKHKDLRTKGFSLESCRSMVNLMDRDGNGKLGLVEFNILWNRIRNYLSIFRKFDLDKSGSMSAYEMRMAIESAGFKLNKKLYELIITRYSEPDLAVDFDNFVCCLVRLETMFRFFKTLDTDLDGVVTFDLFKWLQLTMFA
Sequence of UniProt P41143 (whole entry, unmodified, looked up): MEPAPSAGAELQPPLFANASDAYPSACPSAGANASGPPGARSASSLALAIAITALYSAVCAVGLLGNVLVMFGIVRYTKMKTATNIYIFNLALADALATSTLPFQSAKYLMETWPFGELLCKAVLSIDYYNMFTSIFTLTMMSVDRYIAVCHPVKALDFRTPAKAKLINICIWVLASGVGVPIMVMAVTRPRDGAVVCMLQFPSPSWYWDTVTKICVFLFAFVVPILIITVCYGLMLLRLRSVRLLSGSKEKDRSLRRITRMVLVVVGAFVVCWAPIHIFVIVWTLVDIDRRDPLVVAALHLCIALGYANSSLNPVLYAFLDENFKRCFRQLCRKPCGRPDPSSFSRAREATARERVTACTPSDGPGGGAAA

CC(C)(CO)NCc1ccc(-c2cccc(C(F)(F)F)c2)o1 — Ki (DRD3; binding): 400 nM
CC(=O)NC1C(OC2C(O)C(CO)OC(OC3C(O)C(CO)OC(OC4C(O)C(O)OC(CO)C4O)C3NC(C)=O)C2OC2OC(C)C(O)C(O)C2O)OC(CO)C(O)C1O (stereo not shown) — Kd (slo (Streptococcus pyogenes, UniProt P0C0I3); binding): 105 nM
CC(C)CC(C(=O)N1CC2(CC1C#N)C(=O)Nc1ccccc12)N(C)C(=O)c1cc2c(F)cc(F)c(F)c2[nH]1 (stereo not shown) — IC50 (CAPN1 (Homo sapiens, UniProt P07384)): > 100000 nM
CCCCCc1cc(O)c2c(c1)OC(C)(C)[C@@H]1CCC(C)=C[C@@H]21 — IC50 (Si; enzyme activity, inhibitor, absorbance): 420000 nM
CCC[C@@H](C(=O)c1ccccc1)N1CCCC1 — Ki (SLC6A4 (Homo sapiens, UniProt P31645); transporter uptake, inhibitor, radiometric): 386000 nM
COC(=O)c1occc1CN1CCC(c2c[nH]c3ccccc23)CC1 — Ki (DRD3; binding): 100 nM
CCCCCc1cc(O)c2c(c1)OC(C)(C)c1cc(O)c(C)cc1-2 — IC50 (Si; enzyme activity, inhibitor, absorbance): 90000 nM
O=C(Cc1ccc(OCc2ccccc2)cc1)NC1(C(=O)O)CCN(C(=O)c2ccc(-c3cccc(Cl)c3)cc2)CC1 — IC50 (Probable G-protein coupled receptor 34 (Homo sapiens, UniProt Q9UPC5); G protein activation, antagonist, BRET): 258 nM
CCCCCn1cc(C(=O)c2cccc3ccccc23)c2ccccc21 — EC50 (CNR1; Gαi1 activation, agonist, BRET): 18.6 nM
O=[N+]([O-])CC(c1cccs1)c1c(-c2ccccc2)[nH]c2ccccc12 (stereo not shown) — EC50 (CNR1; G protein activation, agonist, BRET): 280 nM
CCCCCc1cc(O)c2c(c1)OC(C)(C)C1=C2[C@@H](O)[C@@](C)(O)CC1 — IC50 (Si; enzyme activity, inhibitor, absorbance): 410000 nM
CCN(CC)C(=O)c1ccc(C(c2cccc(O)c2)N2CC(C)N(Cc3ccccc3)CC2C)cc1 (stereo not shown) — EC50 (OPRD1 (Homo sapiens, UniProt P41143, Y129F); agonist): 0.061 nM
CCCCCc1cc(OC)c2c(c1)OC(C)(C)c1cc(O)c(C)cc1-2 — IC50 (Si; enzyme activity, inhibitor, absorbance): 350000 nM
CO[C@H]1CCN(Cc2c(C)cc(C)c3[nH]ccc23)[C@H](CO)C1 — IC50 (Complement factor B (Homo sapiens, UniProt P00751); enzyme activity, inhibitor): 3500 nM
CCN(CC)C(=O)[C@@H]1C=C2c3cccc4c3c(cn4C(=O)c3ccco3)C[C@H]2N(C)C1 — Ki (HTR1A (Homo sapiens, UniProt P08908); ligand displacement, radioligand): 385 nM
CCCCCn1cc(C(=O)c2cccc3c2CC(C)(C)C3)c2ccccc21 — EC50 (CNR2 (Homo sapiens, UniProt P34972, V261L); cAMP, agonist, BRET): 2.14 nM
CC(C)n1nc(-c2cccc(O)c2)c2c(N)ncnc21 — Ki (LYN (Homo sapiens, UniProt P07948); enzyme activity, inhibitor): 210 nM
O=C1NC2(CC2)COc2ncc(F)cc2[C@H]2COCCN2c2ccn3ncc1c3n2 — organ-to-brain weight ratio (Sprague-Dawley rat, female, liver; oral, 2.5 mg/kg/day, 4 weeks dosing, end of recovery): 436 ± 40.9%
COc1ccccc1C(C[N+](=O)[O-])c1c(-c2ccccc2)[nH]c2ccccc12 (stereo not shown) — EC50 (CNR1 (Homo sapiens, UniProt P21554, I245F); G protein activation, agonist, BRET): 1400 nM
CSc1cc(C)[nH]c(=O)c1CNC(=O)c1c(C)n([C@H](C)C2CCN(CC(F)(F)F)CC2)c2ccccc12 — IC50 (Histone-lysine N-methyltransferase EZH2, PRC2 pentameric complex (EZH2, Homo sapiens, UniProt Q15910); enzyme activity, inhibitor; together with: H3K27me3 activating peptide): 0.2 nM
Cc1ccc2c(C(C[N+](=O)[O-])c3cccs3)c(-c3ccccc3)[nH]c2c1 (stereo not shown) — EC50 (Cannabinoid receptor 1, with Gi1 (CNR1, Homo sapiens, UniProt P21554); Gi1 dissociation, agonist, BRET; HEK293): 130 ± 10 nM
CC[C@H](C)[C@H](NC(=O)[C@H](CO)NC(=O)[C@H](CC(N)=O)NC(=O)[C@H](CC(C)C)NC(=O)[C@H](Cc1ccc(O)cc1)NC(=O)[C@H](CCCCN)NC(=O)[C@H](CCCCN)NC(=O)[C@@H](NC(=O)[C@H](C)NC(=O)[C@H](CCSC)NC(=O)[C@H](CCC(N)=O)NC(=O)[C@H](CCCCN)NC(=O)[C@H](CCCN=C(N)N)NC(=O)[C@H](CC(C)C)NC(=O)[C@H](CCCN=C(N)N)NC(=O)[C@@H](NC(=O)[C@H](Cc1ccc(O)cc1)NC(=O)[C@H](CC(N)=O)NC(=O)[C@H](CC(=O)O)NC(=O)[C@@H](NC(=O)[C@H](Cc1ccccc1)NC(=O)[C@@H](NC(=O)[C@H](C)NC(=O)[C@H](CC(=O)O)NC(=O)[C@H](CO)NC(=O)[C@@H](N)Cc1c[nH]cn1)C(C)C)[C@@H](C)O)[C@@H](C)O)C(C)C)C(=O)N[C@@H](CC(C)C)C(=O)N[C@@H](CC(N)=O)C(N)=O — EC50 (ADCYAP1R1 (Homo sapiens, UniProt P41586, del89-109); G11 dissociation, agonist, BRET2 TRUPATH; COS-7; 37 °C): 479 nM

For quick reference, copied from above:
O=C1NC2(CC2)COc2ncc(F)cc2[C@H]2COCCN2c2ccn3ncc1c3n2 — organ-to-brain weight ratio (Sprague-Dawley rat, female, liver; oral, 2.5 mg/kg/day, 4 weeks dosing, end of recovery): 436 ± 40.9%
COc1ccccc1C(C[N+](=O)[O-])c1c(-c2ccccc2)[nH]c2ccccc12 (stereo not shown) — EC50 (CNR1 (Homo sapiens, UniProt P21554, I245F); G protein activation, agonist, BRET): 1400 nM
CSc1cc(C)[nH]c(=O)c1CNC(=O)c1c(C)n([C@H](C)C2CCN(CC(F)(F)F)CC2)c2ccccc12 — IC50 (Histone-lysine N-methyltransferase EZH2, PRC2 pentameric complex (EZH2, Homo sapiens, UniProt Q15910); enzyme activity, inhibitor; together with: H3K27me3 activating peptide): 0.2 nM
